Measured values from different studies.
Each line is one published result; not all experiments were run side by side. Numbers after ± are the reported error.

Compound	test	system	conditions	Cmax
CC1=C(O)C(=O)C=C2C1=CC=C1[C@@]2(C)CC[C@@]2(C)[C@@H]3C[C@](C)(C(=O)O)CC[C@]3(C)CC[C@]12C		rat Sprague-Dawley male pups PN5, plasma	intraperitoneal, 4 mg/kg single dose	~3 ng/mL
COC[C@]12CN(C)[C@@H]3[C@@H]4[C@H](OC)[C@H]1[C@@]3([C@@H](OC)C[C@H]2O)[C@@H]1C[C@@]2(O)[C@H](OC(=O)c3ccccc3)[C@@H]1[C@]4(OC(C)=O)[C@@H](O)[C@@H]2OC		Sprague-Dawley rat, plasma	oral, dose not given, in PCW extract	176 ± 37.1 ng/mL
CN1CC[C@]23c4c5ccc(O[C@@H]6O[C@H](C(=O)O)[C@@H](O)[C@H](O)[C@H]6O)c4O[C@H]2[C@@H](O)C=C[C@H]3[C@H]1C5		Sprague-Dawley rat, whole blood	intraperitoneal, 10 mg/kg heroin, single heroin dose alone	2110 ± 227 ng/mL
CCN1C[C@]2(COC)[C@H](O)C[C@H](OC)[C@@]34[C@@H]5C[C@@]6(O)[C@H](OC(=O)c7ccccc7)[C@@H]5[C@@](OC(C)=O)([C@@H]([C@H](OC)[C@H]23)[C@@H]14)[C@@H](O)[C@@H]6OC		Sprague-Dawley rat, plasma	oral, dose not given, with NADES in PCW extract	39.2 ± 8.09 ng/mL
C=CC[N+]1([C@H]2C[C@H]3[C@@H]4CC[C@H]5C[C@H](O)[C@@H](N6CCOCC6)C[C@]5(C)[C@H]4CC[C@]3(C)[C@H]2OC(C)=O)CCCC1		Sprague Dawley rat, plasma	intravenous, dose not given, with: sugammadex 5 mg/kg ODD	278 ng/mL
COC(=O)[C@H]1[C@@H](OC(=O)c2ccccc2)C[C@@H]2CC[C@H]1N2	LC-MS/MS	Sprague-Dawley rat, whole blood	intraperitoneal, 20 mg/kg of cocaine	134 ± 10.6 ng/mL
O=C(O)CCC(CP(=O)(O)O)C(=O)O (stereo not shown)		Wistar rat, male, dorsal root ganglion	ip, 100 mg/kg	30700 ng/g
CC(=O)c1c([O-])cc(C)oc1=O.[Na+]		Wistar rat, male, serum	oral, 200 mg/kg, no CYP inhibitor	220000 ± 17400 ng/mL
COC(=O)[C@H]1[C@@H](OC(=O)c2ccccc2)C[C@@H]2CC[C@H]1N2C	LC-MS/MS	Sprague-Dawley rat, male, whole blood	intraperitoneal, 20 mg/kg	704 ± 43.4 ng/mL
CC(=O)c1c(C)c2cnc(Nc3ccc(C4CCN(CCS(C)(=O)=O)CC4)cn3)nc2n(C2CCCC2)c1=O		Sprague-Dawley rat, male	oral, 60 mg/kg, day 28, repeated dosing 4 weeks	3090 ng/mL
COC[C@@]12CC[C@H](OC)[C@]34C(C([C@H](OC)[C@H]13)[C@]1(OC(C)=O)[C@H]3[C@@H](OC(=O)c5ccccc5)[C@](O)(C[C@H]34)[C@@H](OC)[C@@H]1O)N(C)C2		Sprague-Dawley rat, plasma	oral, dose not given, with NADES in PCW extract	394 ± 49.1 ng/mL
CC(=O)O[C@H]1C=C[C@H]2[C@H]3Cc4ccc(O)c5c4[C@@]2(CCN3C)[C@H]1O5	LC-MS/MS	male Sprague-Dawley rat, whole blood	intraperitoneal, 10 mg/kg of heroin	1110 ± 88.3 ng/mL
Cc1ccc(S(=O)(=O)Nc2c(N[C@H]3CC[C@H](NC(=O)Nc4ccc(F)c(Cl)c4)CC3)c(=O)c2=O)cc1		rat, plasma	oral, 20 mg/kg	30 nM

For quick reference, copied from above:
Compound	test	system	conditions	Cmax
CC(=O)c1c(C)c2cnc(Nc3ccc(C4CCN(CCS(C)(=O)=O)CC4)cn3)nc2n(C2CCCC2)c1=O		Sprague-Dawley rat, male	oral, 60 mg/kg, day 28, repeated dosing 4 weeks	3090 ng/mL
